Results pooled from the literature.
Numbered parts are unrelated; each lists some results of a single study.

Block 1 — technique: protein-binding microarray; molecule type: double-stranded DNA, one strand shown; medium: in vitro; concentration: 940 nM top; setting: 60-bp whole probe; added: salmon DNA 0.4 mg/ml; baseline: random background probes; direction: higher = stronger binding; endpoint: fitted relative affinity; all sequences stand within: GCCTAGCAC … GTCTTGATTCGCTTGACGCTGCTG
Target: Interferon regulatory factor 5, full length, phosphomimetic (IRF5, Homo sapiens, UniProt Q13568-2, residues 1-514, S451D/S453D/S456D/S462D)
Sequence = CTAGTTTTACTTTCTATCTCGTGCTAG; value = 2.58 z-score
Sequence = GACGACCTGGGGACTGGAGACGTGCTA; value = -0.256 z-score
Sequence = TTAGATTTCACACTGGATTAGTGCTAG; value = 0.261 z-score
Sequence = TTAGGTTTCGACTATCGGTTTGTGCTA; value = 9.46 z-score
Sequence = TTAAGACTGCTTCTCCTTTAGTGCTAG; value = -0.0746 z-score
Sequence = GACGGTATCGCGTTTCGGGACGTGCTA; value = 1.74 z-score
Sequence = CCCAAGATTGCCGTTTCCTAAGTGCTA; value = 0.321 z-score
Sequence = TTAGGTCTCCGACTGCTTTAGTGCTAG; value = -0.237 z-score
Sequence = TTAGAACTGGGTATCGGTTAGTGCTAG; value = 3.72 z-score
Sequence = CTGAGTCCCTATCTCCTCACGTGCTAG; value = 0.447 z-score

Block 2 — technique: protein-binding microarray; molecule type: double-stranded DNA, one strand shown; medium: in vitro; concentration: not given; direction: higher = stronger binding; endpoint: E-score
Target: Transcriptional repressor CTCF (CTCF, Homo sapiens, UniProt P49711, residues 1-727, full length assumed)
Chain of UniProt P49711 (whole entry, looked up): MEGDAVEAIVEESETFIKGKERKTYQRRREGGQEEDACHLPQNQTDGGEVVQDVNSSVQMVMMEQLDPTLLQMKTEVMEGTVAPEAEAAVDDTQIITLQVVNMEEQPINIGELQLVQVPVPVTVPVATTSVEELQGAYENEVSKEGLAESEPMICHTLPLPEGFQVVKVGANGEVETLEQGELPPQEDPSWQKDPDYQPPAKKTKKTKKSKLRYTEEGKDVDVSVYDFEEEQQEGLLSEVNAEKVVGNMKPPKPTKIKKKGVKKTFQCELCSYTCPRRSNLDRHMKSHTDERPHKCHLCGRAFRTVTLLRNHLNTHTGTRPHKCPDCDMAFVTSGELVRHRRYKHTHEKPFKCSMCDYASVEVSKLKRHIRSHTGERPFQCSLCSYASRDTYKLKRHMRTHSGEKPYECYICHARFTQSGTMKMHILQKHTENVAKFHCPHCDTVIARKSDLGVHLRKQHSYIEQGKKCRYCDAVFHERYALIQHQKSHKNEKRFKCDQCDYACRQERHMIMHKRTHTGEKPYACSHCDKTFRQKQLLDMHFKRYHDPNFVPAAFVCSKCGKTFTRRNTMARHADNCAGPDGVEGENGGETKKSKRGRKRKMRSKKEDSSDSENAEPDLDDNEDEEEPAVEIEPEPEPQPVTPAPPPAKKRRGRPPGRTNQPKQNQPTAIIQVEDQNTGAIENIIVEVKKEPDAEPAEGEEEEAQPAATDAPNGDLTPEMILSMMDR
Setting: k-mer, scored over probes, only values ≥0.25
Sequence = TATCTCAA; value = 0.307
Sequence = AACCACAT; value = 0.322
Sequence = ACGTATAA; value = 0.326
Sequence = AGTGCAAT; value = 0.344

Block 3 — technique: universal PBM; molecule type: double-stranded DNA, one strand shown; medium: in vitro; concentration: not given; direction: higher = stronger binding; endpoint: E-score
Target: Sal-like protein 4, full length isoform B (SALL4, Homo sapiens, UniProt Q9UJQ4-2, residues 1-616)
Setting: 8-mer, flanks averaged, mean of replicates
Sequence = TGTTCTAA; value = 0.301
Sequence = CTGCTGAC; value = -0.189
Sequence = CCGTGTAC; value = -0.12
Sequence = ACGCGAGT; value = -0.127
Sequence = CGTTCACC; value = -0.155
Sequence = AGTACGAG; value = 0.0991
Sequence = AAGGTTCA; value = 0.0109

Mixed results
Molecule = PhoQ, residues 284 288 289 292 302 303 SMMNNA; target = PhoP, residues 12 14 15 18 19 NQFFI (Escherichia coli, UniProt P23836); assay = Sort-seq, item: YFP reporter; test system = E. coli; setting = PhoQ-PhoP variant library, added: 10 µM Mg2+; how to read = baseline: high Mg2+ state, higher = stronger signaling; endpoint = fold induction; value = 17.3
